Experimental data gathered from unrelated publications.
Each line is one published result; not all experiments were run side by side. “And” joins repeats or separate records; there may be more than shown. Numbers after ± are the reported error.
Organism: HIV-1

SMILES	assay	test system	conditions	IC50
C=C(C)[C@@H]1CC[C@]2(C(=O)N3CCC(CCCC(=O)NCCN4CCOCC4)CC3)CC[C@]3(C)[C@H](CC[C@@H]4[C@@]5(C)CC[C@H](O)C(C)(C)[C@@H]5CC[C@]43C)[C@@H]12	viral replication, measured: p24	MT4, NL4-3	96 h	> 10 µM
COc1ccc2c(c1)OCCCCCCCN(C[C@@H](O)[C@H](Cc1ccccc1)NC(=O)O[C@H]1CO[C@H]3OCC[C@H]31)S2(=O)=O	viral replication, MTT	MT-2 cells, LAI	–	0.023 µM
c1nc2c(NCc3cn(CCCNCCCNC4CCCCC4)nn3)nc(N3CCNCC3)nc2[nH]1	viral replication, inhibitor	TZM-bl, IIIB	–	0.0036 µM
COc1ccccc1NC(=O)c1ccccc1OCc1ccc(C#N)cc1	viral replication, measured: reverse transcriptase activity	MT-4, LAI	7 d	22.8 µM
CC[C@H](C)[C@H](N)C(=O)N[C@@H](CC(C)C)C(=O)N[C@@H](CCCNC(=N)N)C(=O)N[C@@H](Cc1c[nH]c2ccccc12)C(=O)N[C@@H](CO)C(=O)N[C@@H](CCCNC(=N)N)C(=O)N[C@@H](CCCCN)C(=O)N[C@@H](CCSC)C(=O)N1CCC[C@H]1C(=O)N[C@@H](CS)C(=O)N[C@@H](CCSC)C(=O)N[C@@H](CO)C(=O)O	viral replication, inhibitor, β-galactosidase reporter	TZM-bl, NL4-3, CXCR4-tropic	3 days	0.121 ± 0.023 µM
COc1ccc2c(c1)OCCCC/C=C\CN(C[C@@H](O)[C@H](Cc1ccccc1)NC(=O)O[C@H]1CO[C@H]3OCC[C@H]31)S2(=O)=O	viral replication, MTT	MT-2 cells, LAI	–	0.014 µM
CC(C)C[C@H](NC(=O)[C@@H](NC(=O)[C@@H]1CCCN1C(=O)[C@@H](NC(=O)[C@H](CO)NC(=O)[C@@H](NC(=O)[C@H](CCC(N)=O)NC(=O)[C@@H]1CCCN1C(=O)[C@@H](NC(=O)[C@H](CCCCN)NC(=O)[C@H](CCCCN)NC(=O)[C@@H](NC(=O)[C@H](Cc1ccc(O)cc1)NC(=O)[C@H](CCCNC(=N)N)NC(=O)[C@@H](NC(=O)[C@@H](N)CC(C)C)C(C)C)[C@@H](C)O)C(C)C)C(C)C)[C@@H](C)O)[C@@H](C)O)C(=O)O	viral replication, inhibitor, β-galactosidase reporter	TZM-bl, NL4-3, CXCR4-tropic	3 days	5.92 ± 2.49 µM
C=C(C)[C@@H]1CC[C@]2(C(=O)OCCCc3ccccc3)CC[C@]3(C)[C@H](CC[C@@H]4[C@@]5(C)CC[C@H](O)C(C)(C)[C@@H]5CC[C@]43C)[C@@H]12	viral replication, measured: p24	MT4, NL4-3	96 h	> 10 µM
O=c1cc(-c2ccc(O)c(O)c2)oc2cc(O)cc(O)c12	viral replication	TZM-bl, NL4-3, CXCR4-tropic	48 h	1.49 µM
C=C(C)[C@@H]1CC[C@]2(C(=O)OCOC)CC[C@]3(C)[C@H](CC[C@@H]4[C@@]5(C)CC[C@H](O)C(C)(C)[C@@H]5CC[C@]43C)[C@@H]12	viral replication, measured: p24	MT4, NL4-3	96 h	> 10 µM
CN(C)CCCn1c(=O)c2cc(Br)c3c(=O)n(CCCN(C)C)c(=O)c4c5[nH]c6ccccc6[nH]c5c(c1=O)c2c34	viral replication, LTR luciferase reporter	TZM-bl, BaL	48 h	< 0.04 µM
C=C(C)[C@@H]1CC[C@]2(C(=O)OCCCCCCCC)CC[C@]3(C)[C@H](CC[C@@H]4[C@@]5(C)CC[C@H](O)C(C)(C)[C@@H]5CC[C@]43C)[C@@H]12	viral replication, measured: p24	MT4, NL4-3	96 h	> 10 µM
O=S(=O)([O-])[O-].O=S(=O)([O-])[O-].[O]=[V+2].[O]=[V+2].c1cc(CN2CCCNCCNCCCNCC2)ccc1CN1CCCNCCNCCCNCC1	viral cytopathic effect	MT4 cells, IIIB	–	1.15 µM and 1.57 µM

For quick reference, copied from above:
SMILES	assay	test system	conditions	IC50
COc1ccc2c(c1)OCCCCCCCN(C[C@@H](O)[C@H](Cc1ccccc1)NC(=O)O[C@H]1CO[C@H]3OCC[C@H]31)S2(=O)=O	viral replication, MTT	MT-2 cells, LAI	–	0.023 µM
